Assay results gathered from unrelated publications.
Protocols differ between the studies behind these lines. Several values in a cell are separate wells, animals, samples, runs or records. ± gives the spread as reported.
Nicotinic acetylcholine receptor alpha1/beta1/epsilon/delta: Nicotinic acetylcholine receptor alpha1/beta1/epsilon/delta (Mus musculus, UniProt P02716+P04756+P09690+P20782)
Sequence of UniProt P04756 (whole entry, looked up): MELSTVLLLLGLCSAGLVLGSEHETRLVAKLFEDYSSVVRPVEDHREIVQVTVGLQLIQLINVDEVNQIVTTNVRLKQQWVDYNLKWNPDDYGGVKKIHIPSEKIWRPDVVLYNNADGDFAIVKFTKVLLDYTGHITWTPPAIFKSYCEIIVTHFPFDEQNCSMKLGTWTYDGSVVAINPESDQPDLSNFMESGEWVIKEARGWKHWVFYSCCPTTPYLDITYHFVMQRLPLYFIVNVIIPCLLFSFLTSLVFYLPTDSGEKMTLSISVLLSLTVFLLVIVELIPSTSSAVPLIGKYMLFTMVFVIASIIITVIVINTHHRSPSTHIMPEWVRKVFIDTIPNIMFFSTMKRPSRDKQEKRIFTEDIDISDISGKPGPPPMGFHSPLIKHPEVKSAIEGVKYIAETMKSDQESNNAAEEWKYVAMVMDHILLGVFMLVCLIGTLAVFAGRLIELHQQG
Sequence of UniProt P09690 (whole entry, looked up): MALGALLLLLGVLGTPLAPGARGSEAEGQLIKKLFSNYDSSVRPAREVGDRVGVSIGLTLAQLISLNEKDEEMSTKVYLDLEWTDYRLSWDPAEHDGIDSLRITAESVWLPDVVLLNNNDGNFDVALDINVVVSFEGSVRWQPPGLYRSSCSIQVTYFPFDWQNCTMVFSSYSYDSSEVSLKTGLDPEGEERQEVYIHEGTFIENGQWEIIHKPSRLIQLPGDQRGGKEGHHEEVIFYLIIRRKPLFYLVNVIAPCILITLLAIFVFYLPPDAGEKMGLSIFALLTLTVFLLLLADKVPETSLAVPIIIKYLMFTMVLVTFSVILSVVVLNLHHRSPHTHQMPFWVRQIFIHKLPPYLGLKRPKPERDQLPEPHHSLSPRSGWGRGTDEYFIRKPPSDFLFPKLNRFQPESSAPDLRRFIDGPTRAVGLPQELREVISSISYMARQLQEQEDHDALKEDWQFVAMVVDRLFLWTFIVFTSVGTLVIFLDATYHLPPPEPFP
Sequence of UniProt P02716 (whole entry, looked up): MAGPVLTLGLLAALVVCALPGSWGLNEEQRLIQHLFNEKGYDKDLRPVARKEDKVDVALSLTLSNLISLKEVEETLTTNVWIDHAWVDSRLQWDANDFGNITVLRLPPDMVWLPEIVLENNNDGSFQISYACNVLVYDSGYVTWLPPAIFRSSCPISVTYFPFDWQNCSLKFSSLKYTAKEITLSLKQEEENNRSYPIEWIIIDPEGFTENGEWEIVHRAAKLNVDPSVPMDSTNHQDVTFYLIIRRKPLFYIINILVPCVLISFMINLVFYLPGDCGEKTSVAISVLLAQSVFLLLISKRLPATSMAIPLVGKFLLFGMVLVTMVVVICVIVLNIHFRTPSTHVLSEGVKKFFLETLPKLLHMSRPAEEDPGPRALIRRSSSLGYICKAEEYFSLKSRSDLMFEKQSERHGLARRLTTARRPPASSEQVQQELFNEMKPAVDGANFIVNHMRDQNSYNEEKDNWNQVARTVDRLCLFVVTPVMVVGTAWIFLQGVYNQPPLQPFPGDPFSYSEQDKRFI
ALB: Albumin (ALB, Homo sapiens, UniProt P02768)
UCHL1: Ubiquitin carboxyl-terminal hydrolase isozyme L1 (UCHL1, Homo sapiens, UniProt P09936)
Sequence of UniProt Q007T0 (whole entry, looked up): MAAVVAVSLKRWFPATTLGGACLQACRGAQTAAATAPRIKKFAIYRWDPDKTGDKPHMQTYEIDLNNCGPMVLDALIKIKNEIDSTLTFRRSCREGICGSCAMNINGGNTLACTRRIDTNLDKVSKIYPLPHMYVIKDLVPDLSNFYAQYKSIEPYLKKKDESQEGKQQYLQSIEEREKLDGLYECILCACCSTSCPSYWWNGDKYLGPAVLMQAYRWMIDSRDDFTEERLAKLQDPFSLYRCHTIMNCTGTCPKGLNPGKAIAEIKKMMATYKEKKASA
Sequence of UniProt A5GZW8 (whole entry, looked up): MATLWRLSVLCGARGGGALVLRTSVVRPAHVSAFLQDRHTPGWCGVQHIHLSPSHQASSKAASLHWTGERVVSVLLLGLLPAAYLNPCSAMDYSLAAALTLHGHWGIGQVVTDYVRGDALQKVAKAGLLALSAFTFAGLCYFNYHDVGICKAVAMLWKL
Sequence of UniProt D0VWV4 (whole entry, looked up): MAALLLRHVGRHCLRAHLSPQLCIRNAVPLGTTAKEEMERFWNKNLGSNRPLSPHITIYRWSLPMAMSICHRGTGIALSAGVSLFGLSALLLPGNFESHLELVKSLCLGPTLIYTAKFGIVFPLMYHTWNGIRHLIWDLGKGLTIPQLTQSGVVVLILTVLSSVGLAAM
Sequence of UniProt P09936 (whole entry, looked up): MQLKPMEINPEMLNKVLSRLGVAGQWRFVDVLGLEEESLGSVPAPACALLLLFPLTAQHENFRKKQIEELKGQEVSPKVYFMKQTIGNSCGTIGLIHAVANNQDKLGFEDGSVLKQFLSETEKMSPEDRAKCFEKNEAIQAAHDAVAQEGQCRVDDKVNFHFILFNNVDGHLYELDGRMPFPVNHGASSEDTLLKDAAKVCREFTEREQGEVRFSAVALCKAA
Sequence of UniProt Q62351 (whole entry, looked up): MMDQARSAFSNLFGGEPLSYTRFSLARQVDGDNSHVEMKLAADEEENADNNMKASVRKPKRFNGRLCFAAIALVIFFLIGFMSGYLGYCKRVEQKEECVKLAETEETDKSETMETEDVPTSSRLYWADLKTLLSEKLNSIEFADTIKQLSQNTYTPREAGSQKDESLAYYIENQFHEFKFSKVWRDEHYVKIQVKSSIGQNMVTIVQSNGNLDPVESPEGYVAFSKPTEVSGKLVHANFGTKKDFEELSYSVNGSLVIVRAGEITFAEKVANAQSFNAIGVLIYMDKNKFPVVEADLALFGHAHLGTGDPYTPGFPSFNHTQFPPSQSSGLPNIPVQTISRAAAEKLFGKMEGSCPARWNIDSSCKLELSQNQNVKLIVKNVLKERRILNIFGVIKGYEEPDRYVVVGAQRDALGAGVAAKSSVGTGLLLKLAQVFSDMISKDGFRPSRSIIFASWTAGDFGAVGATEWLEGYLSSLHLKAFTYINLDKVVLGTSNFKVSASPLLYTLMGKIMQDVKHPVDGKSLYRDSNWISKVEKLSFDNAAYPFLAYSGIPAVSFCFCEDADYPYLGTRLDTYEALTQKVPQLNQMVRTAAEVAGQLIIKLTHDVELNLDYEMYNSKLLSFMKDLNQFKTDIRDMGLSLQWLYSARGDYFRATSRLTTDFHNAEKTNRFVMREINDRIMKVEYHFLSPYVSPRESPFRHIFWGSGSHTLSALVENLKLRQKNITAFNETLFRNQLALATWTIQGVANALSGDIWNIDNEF
Sequence of UniProt P77488 (whole entry, unmodified, looked up): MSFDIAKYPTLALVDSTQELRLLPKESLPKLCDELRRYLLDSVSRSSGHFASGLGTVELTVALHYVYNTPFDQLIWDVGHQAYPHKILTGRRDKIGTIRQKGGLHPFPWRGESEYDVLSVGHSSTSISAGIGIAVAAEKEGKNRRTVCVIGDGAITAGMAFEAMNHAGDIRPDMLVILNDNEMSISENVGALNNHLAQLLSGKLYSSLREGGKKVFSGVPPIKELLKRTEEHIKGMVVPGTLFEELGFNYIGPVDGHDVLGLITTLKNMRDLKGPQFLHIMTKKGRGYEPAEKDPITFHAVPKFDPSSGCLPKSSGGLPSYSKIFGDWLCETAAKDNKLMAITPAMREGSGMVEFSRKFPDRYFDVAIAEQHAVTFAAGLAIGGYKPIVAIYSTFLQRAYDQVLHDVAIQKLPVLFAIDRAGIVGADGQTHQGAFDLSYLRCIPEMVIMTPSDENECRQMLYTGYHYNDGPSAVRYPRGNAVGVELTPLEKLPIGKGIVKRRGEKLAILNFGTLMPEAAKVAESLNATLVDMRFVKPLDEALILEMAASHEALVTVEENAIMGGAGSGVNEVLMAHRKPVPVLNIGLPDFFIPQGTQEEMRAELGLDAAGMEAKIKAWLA
Sequence of UniProt P32246 (whole entry, looked up): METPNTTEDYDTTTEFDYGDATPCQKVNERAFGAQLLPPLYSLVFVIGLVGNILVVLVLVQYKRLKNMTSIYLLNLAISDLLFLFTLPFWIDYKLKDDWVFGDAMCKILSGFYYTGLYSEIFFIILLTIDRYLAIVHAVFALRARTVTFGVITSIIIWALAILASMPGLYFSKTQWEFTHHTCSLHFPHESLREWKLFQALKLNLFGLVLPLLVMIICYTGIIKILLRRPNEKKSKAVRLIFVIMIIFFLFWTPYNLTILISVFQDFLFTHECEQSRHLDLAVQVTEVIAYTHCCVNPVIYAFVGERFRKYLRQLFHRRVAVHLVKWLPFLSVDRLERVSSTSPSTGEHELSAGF
Sequence of UniProt Q99720 (whole entry, looked up): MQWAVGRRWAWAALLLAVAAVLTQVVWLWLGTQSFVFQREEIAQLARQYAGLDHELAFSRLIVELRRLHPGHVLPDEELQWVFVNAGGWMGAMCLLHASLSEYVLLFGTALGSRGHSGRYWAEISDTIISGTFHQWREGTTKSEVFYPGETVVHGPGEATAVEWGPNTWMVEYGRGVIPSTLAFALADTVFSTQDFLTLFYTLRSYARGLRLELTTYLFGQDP

Compound	target	assay	system	setting	how to read	measurement	result
C[C@@H](NC(=O)[C@@H](N)Cc1ccc(O)cc1)C(=O)NCC(=O)N(C)[C@@H](Cc1ccccc1)C(=O)NCCO	Mu-type opioid receptor (Oprm1, Mus musculus, UniProt P42866)	agonist	mouse spinal cord membranes	1.78 µM	reference: baseline	GTPγS binding	38.4% and 35.2% and 50% and 44.9% and 37.5% and 33.1% and 37.9% and 49.7%
CCC[N+]1(C)CCN(c2ccccc2)CC1.[I-]	Nicotinic acetylcholine receptor alpha1/beta1/epsilon/delta	ion current, inhibitor, two-electrode voltage clamp	Xenopus oocytes	30 µM, after co-application, unit not given, with: ACh 30 µM	reference: ACh alone	ACh response	0.515 ± 0.185
CN(C(=O)n1cnc(-c2ccc[n+]([O-])c2)c1)C1CCCCC1	kainate receptor, rat	binding	–	10 µM, with: [3H]kainic acid	–	inhibition	-9%
CC(=O)P(=O)(O)OCCc1cn([C@H](Cc2ccccc2)C(=O)O)nn1	1-deoxy-D-xylulose-5-phosphate synthase (dxs, Escherichia coli, UniProt P77488)	–	–	23 °C, 250 µM D-GAP, with: 100 µM pyruvate	–	forward isomerization rate k1	1.1 min⁻¹
CC12CCC(CC1)C(C)(C)O2	1,8-cineole 2-endo-monooxygenase (cinA, Citrobacter braakii, UniProt Q8VQF6, Y81F)	substrate, GC-MS	–	0 to 2 min, Y81F enzyme variant	–	product formation rate	178 ± 15.8 min⁻¹
Cc1nn(C)cc1-c1nc2c(N3CCN(Cc4ccc(Cl)cc4)CC3)c(Cl)cnc2[nH]1	Activin receptor type-2B (ACVR2B, Homo sapiens, UniProt Q13705)	KINOMEscan	–	1 µM	reference: DMSO control	remaining binding	72%
CC(=O)N[C@H](C(=O)N1C[C@H](O)C[C@H]1C(=O)NCc1ccc(-c2scnc2C)cc1)C(C)(C)SCCCCCCNC(=O)C[C@@H]1N=C(c2ccc(Cl)cc2)c2c(sc(C)c2C)-n2c(C)nnc21	Bromodomain-containing protein 4, BD2 (BRD4, Homo sapiens, UniProt O60885, A384K/E383V/K378Q)	ITC	–	25 °C, BD2 mutant, binary	–	−TΔS	0.8 ± 0.9 kcal/mol
O=C(c1ccc(Cl)cc1)N1CCN2C(=O)N(OC(=O)N3CCOc4ccccc43)C(=O)C2C1 (stereo not drawn)	Neutral cholesterol ester hydrolase 1 (NCEH1, Homo sapiens, UniProt Q6PIU2)	enzyme activity, inhibitor, MS-based ABPP	SW-620 in situ	10 µM, 2 h, 37 °C	reference: compound over DMSO, lower = stronger inhibition	median ratio	1.03
Nc1ncc(-c2nc(N3CCOCC3)nc(N3CCOCC3)n2)c(C(F)F)n1	Muscle, skeletal receptor tyrosine-protein kinase (MUSK, Homo sapiens, UniProt O15146)	KINOMEscan	–	10 µM	–	remaining binding	92%
CC[C@@H](C)[C@@H](NC(=O)[C@@H](Cc1ccc(O)cc1)NC(=O)[C@H]1CCCN1C(=O)[C@@H](CCCNC(=N)N)NC(=O)[C@H](N)Cc1c[nH]cn1)C(=O)N[C@H](C)C(=O)N[C@H](Cc1c[nH]cn1)C(=O)N[C@H](CCCNC(=N)N)C(=O)N[C@H](CCCCNC(=O)c1cccc(S(=O)(=O)F)c1)C(=O)N[C@H](Cc1ccc(O)cc1)C(=O)N[C@H](CO)C(=O)N[C@H](Cc1ccccc1)C(N)=O	Transferrin receptor protein 1 (Tfrc, Mus musculus, UniProt Q62351)	flow cytometry	RAW264.7	6 h, pH 7.4, unit not given	reference: 0 h	surface expression	0.904 and 0.911
COc1ccc(N2C(=O)N(c3c(C)cccc3Cl)Cc3cnc(Nc4ccc(C5CCN(C)CC5)cc4OC)nc32)nc1	Serine/threonine-protein kinase 4 (STK4, Homo sapiens, UniProt Q13043)	kinase activity, inhibitor	–	0.5 µM, MST1	–	inhibition	10%
[2H]c1c([2H])c([C@]2([2H])CCCN2C(=O)C(C)(C)Oc2ccc3cn[nH]c3c2)c([2H])c([2H])c1C([2H])([2H])[2H]	cAMP-dependent protein kinase catalytic subunit alpha (PRKACA, Homo sapiens, UniProt P17612)	KINOMEscan	–	1 µM	reference: DMSO control	remaining binding	95%
CN1CCN(c2cc(-c3ccncc3)c(-c3ccc4ccccc4c3)nn2)CC1	Kappa-type opioid receptor (OPRK1, Homo sapiens, UniProt P41145)	agonist, FLIPR	–	12.5 µM	–	activation	-1.5%
COc1cc(-c2[o+]c3cc(O)cc(O)c3cc2O[C@@H]2O[C@H](CO)[C@@H](O)[C@H](O)[C@H]2O)cc(OC)c1O	ALB	binding, fluorescence quenching	–	40 °C	–	Gibbs free energy	-5.71 kcal/mol
CCOC(=O)COc1ccc2c(=O)c3ccccc3oc2c1	Acetylcholinesterase (ache, Electrophorus electricus, UniProt O42275)	enzyme activity	–	0.84 µM, with: substrate 1.73 mM	higher = faster reaction	reaction velocity	0.0022 a.u.
C[C@]12CC[C@@H]3c4ccc(OS(=O)(=O)O)cc4CC[C@H]3[C@@H]1CCC2=O	Solute carrier family 22 member 11 (SLC22A11, Homo sapiens, UniProt Q9NSA0)	substrate	CHO cells expressing human OAT4	5 min, pH 7.4	–	Km	7.7 ± 0.3 µM
COc1ccc2c(c[n+](C)c3c4cc5c(cc4ccc23)OCO5)c1OC	Transient receptor potential cation channel subfamily M member 8 (TRPM8, Homo sapiens, UniProt Q7Z2W7)	antagonist	HEK293	5 µM	reference: control	remaining activity	75.9 ± 2.96%
O=C(O)c1cccc(C(=O)O)n1	Metallo-beta-lactamase VIM-2 (VIM-2, Escherichia coli, UniProt Q5U7L7)	enzyme activity, inhibitor	–	with: nitrocefin	–	koff	0.00383 ± 0.001 s⁻¹
O=C(CCl)Cc1ccc(F)cc1	UCHL1	covalent, intact protein LC-MS	–	12.5 µM	–	labelling	33.8%
C=C(CN(C(=O)c1c(C(F)F)nn(C)c1F)C1CC1)c1ccc(Cl)cc1Cl	SDHD/SDHC/SDHB (Sus scrofa, UniProt A5GZW8+D0VWV4+Q007T0)	enzyme activity, inhibitor, DCIP reduction	pig	0.2 µM, with: DCIP 10 µM	–	reaction velocity	0.00257 µM/s and 0.00292 µM/s and 0.0027 µM/s

Compound	target	assay	system	setting	how to read	measurement	result
CC[N+]1(CC)CCN(c2ccc(F)cc2)CC1	Nicotinic acetylcholine receptor alpha1/beta1/epsilon/delta	ion current, inhibitor, two-electrode voltage clamp	Xenopus oocytes	30 µM, after co-application, unit not given, with: ACh 30 µM	reference: ACh alone	ACh response	0.539 ± 0.234
COc1cc(Nc2ncc(F)c(Nc3ccc4c(n3)NC(=O)C(C)(C)O4)n2)cc(OC)c1OC	Serine/threonine-protein kinase 36 (STK36, Homo sapiens, UniProt Q9NRP7)	KINOMEscan	–	10 µM	–	inhibition	95%
CC(C)[C@@H](O)CC[C@@H](C)[C@H]1CC[C@H]2[C@@H]3CC=C4C[C@@H](O)CC[C@]4(C)[C@H]3CC[C@]12C	Glutamate NMDA receptor; GRIN1/GRIN2B (GRIN1/GRIN2B, Homo sapiens, UniProt Q05586+Q13224, A652C)	two-electrode voltage clamp	Xenopus oocytes	concentration not given, with PAM, holding -40 mV, with: 200 µM MTSEA, 100 µM glutamate	–	potentiation by MTSEA	1120 ± 78%
Cc1ncsc1-c1ccc([C@H](CC(=O)N2CCN(c3ccc(C#Cc4ccc(C(=O)N5CCC(n6cc(-c7ccc8c(c7)CCN8C(=O)Cc7cccc(OC(F)(F)F)c7)c7c(N)ncnc76)CC5)cc4)cn3)CC2)NC(=O)[C@@H]2C[C@@H](O)CN2C(=O)[C@@H](NC(=O)C2(F)CC2)C(C)(C)C)cc1	Receptor-interacting serine/threonine-protein kinase 1 (RIPK1, Homo sapiens, UniProt Q13546)	degrader	Jurkat	–	–	Dmax	98%
Cc1ccc2c(c1)C=CC21CCN(C2Cc3ccccc3CC2O)CC1 (racemic)	Sigma non-opioid intracellular receptor 1 (SIGMAR1, Homo sapiens, UniProt Q99720)	–	rat liver (sigma2), human sigma1	–	reference: Ki sigma2 over Ki sigma1	selectivity ratio	180
CN(Cc1ccc(S(=O)(=O)N2CCOCC2)cc1)c1ccc2c3c(cccc13)C(N)=N2	Thymidylate synthase (TYMS, Homo sapiens, UniProt P04818)	from literature Kd	–	–	–	binding efficiency index	18
COc1ccc(F)cc1C(=O)NCc1ccc(-c2nn([C@@H](C)C(F)(F)F)c(N)c2C(N)=O)cc1	Tyrosine-protein kinase CSK (CSK, Homo sapiens, UniProt P41240)	target engagement, NanoBRET	HEK293	–	reference: CSK over BTK	selectivity ratio	> 7600
CC(=O)NC[C@H]1[C@H](O)[C@H](O)[C@@H]2[C@H](O)C[C@@H](CO)N21	human placental β-N-acetylglucosaminidase	–	–	0.00322 µM, run 2, with: p-nitrophenyl GlcNAc	–	inhibition	34.1%
O=C(CCl)c1cscn1	UCHL1	covalent, intact protein LC-MS	–	12.5 µM	–	labelling	14%
C[C@H]1CN(c2n[nH]c3nc(N[C@H]4CC[C@H](NS(=O)(=O)CCC(F)(F)F)CC4)ncc23)CCO1	Cysteine--tRNA ligase, cytoplasmic (Homo sapiens, UniProt P49589)	Kinobeads competition, measured: CARS	–	20 µM, unit not given	reference: vehicle	remaining binding	1.11
COc1cc(/C=C/c2ccc(O)cc2)cc(OC)c1	O-methyltransferase (Sorghum bicolor, UniProt A0A1B6PFV1, W279A)	isothermal titration calorimetry	–	with: RSV	–	∆G	-7.88 kcal/mol
CCCCCCCCC(=O)O	ALB	ITC	–	25 °C, first binding site, with: HSA 20 µM	–	association constant	1.3e+06 M⁻¹
Brc1ccc(COc2ccccc2CNCc2ccccc2)cc1	aacA-aphD, AAC(6')-Ie domain (Staphylococcus aureus, UniProt P0A0C1)	neomycin acetylation, inhibitor	–	with: neomycin	–	highest concentration without inhibition	> 200 µM
COc1c(-c2ccc3cc(NS(C)(=O)=O)ccc3c2)cc(-n2ccc(=O)[nH]c2=O)cc1C(C)(C)C	Ribosomal processing cysteine protease Prp (prp, Staphylococcus aureus, UniProt Q2FXS9, N63Q)	enzyme activity, inhibitor	–	10 µM, prp 21.4 nM, with: FITC peptide substrate 0.5 µM	–	inhibition	-45.3 ± 16.8%
O=C(Nc1cnccc1Cl)N1CCN(Cc2ccc3c(c2)OC(F)(F)O3)CC1	C-C chemokine receptor type 1 (CCR1, Homo sapiens, UniProt P32246)	radioligand binding, inhibitor	–	concentration not given	–	inhibition	-14% and -18%
CC(=O)P(=O)(O)OCCc1cn([C@H](Cc2ccccc2)C(=O)O)nn1	1-deoxy-D-xylulose-5-phosphate synthase (dxs, Escherichia coli, UniProt P77488, R99A)	inhibitor, DXPS-IspC coupled	–	–	reference: wild-type enzyme	IC50 fold increase	50 fold
CN(C(=O)n1cnc(-c2ccc[n+]([O-])c2)c1)C1CCCCC1	Carboxylesterase 1C (Ces1c, Rattus norvegicus, UniProt P10959)	enzyme activity, ABPP	rat, brain	oral, 100 mg/kg/day, 7 days	reference: vehicle	fold change	-15
O=C(Nc1cccnn1)N1CCC(=Cc2cccc(Oc3ccc(C(F)(F)F)cn3)c2)CC1	Calcium/calmodulin-dependent protein kinase type IV (CAMK4, Homo sapiens, UniProt Q16566)	enzyme activity, inhibitor	–	10 µM, with: autocamtide-2	–	inhibition	5%
COc1cc(N)c(Cl)cc1C(=O)NC1CN2CCC1CC2 (stereo not drawn)	Chemerin-like receptor 1 (CMKLR1, Homo sapiens, UniProt Q99788)	β-arrestin recruitment, TANGO luminescence	–	concentration not given	reference: basal luminescence	log2 fold change	0.617

For quick reference, copied from above:
Compound	target	assay	system	setting	how to read	measurement	result
CC(=O)P(=O)(O)OCCc1cn([C@H](Cc2ccccc2)C(=O)O)nn1	1-deoxy-D-xylulose-5-phosphate synthase (dxs, Escherichia coli, UniProt P77488, R99A)	inhibitor, DXPS-IspC coupled	–	–	reference: wild-type enzyme	IC50 fold increase	50 fold
O=C(CCl)Cc1ccc(F)cc1	UCHL1	covalent, intact protein LC-MS	–	12.5 µM	–	labelling	33.8%
COc1cc(/C=C/c2ccc(O)cc2)cc(OC)c1	O-methyltransferase (Sorghum bicolor, UniProt A0A1B6PFV1, W279A)	isothermal titration calorimetry	–	with: RSV	–	∆G	-7.88 kcal/mol
